Assay results collected from several papers.
Numbered parts are unrelated; each lists some results of a single study. Positions count from the first letter of the parent shown.

Block 1
Target: ABI1, truncated, D143A, DHFR fusion (Arabidopsis thaliana)
Method: DHFR PCA, deep sequencing
Matrix: yeast
Notes: methotrexate growth selection, single substitutions
Together with: (+)-ABA 58 µM
Reference: wild-type fitted maximum
Direction: higher = stronger binding
Endpoint: relative binding score
Parent: PYL1, truncated, DHFR fusion (Arabidopsis thaliana); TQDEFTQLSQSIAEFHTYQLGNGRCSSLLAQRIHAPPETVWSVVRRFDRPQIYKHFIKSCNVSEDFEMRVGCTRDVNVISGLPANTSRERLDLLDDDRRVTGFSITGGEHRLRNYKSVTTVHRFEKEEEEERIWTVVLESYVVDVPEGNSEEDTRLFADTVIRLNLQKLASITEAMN
S140H: -1.14%
T160W: 56.9%
F66V: 75.6%
C25L: 53.7%
R98Q: 84%
Y53E: -1.49%
E151R: 77.9%
G102V: 14.5%
R45F: -9.34%
V76L: 75.4%
E127P: 96.5%
A84Q: -14.7%
L94Q: 31.7%
F47H: -4.87%

Block 2
Target: Ras GTPase-activating protein-binding protein 1, C-terminal RGG region (G3BP1, Homo sapiens, UniProt Q13283)
Chain of UniProt Q13283 (whole entry, looked up): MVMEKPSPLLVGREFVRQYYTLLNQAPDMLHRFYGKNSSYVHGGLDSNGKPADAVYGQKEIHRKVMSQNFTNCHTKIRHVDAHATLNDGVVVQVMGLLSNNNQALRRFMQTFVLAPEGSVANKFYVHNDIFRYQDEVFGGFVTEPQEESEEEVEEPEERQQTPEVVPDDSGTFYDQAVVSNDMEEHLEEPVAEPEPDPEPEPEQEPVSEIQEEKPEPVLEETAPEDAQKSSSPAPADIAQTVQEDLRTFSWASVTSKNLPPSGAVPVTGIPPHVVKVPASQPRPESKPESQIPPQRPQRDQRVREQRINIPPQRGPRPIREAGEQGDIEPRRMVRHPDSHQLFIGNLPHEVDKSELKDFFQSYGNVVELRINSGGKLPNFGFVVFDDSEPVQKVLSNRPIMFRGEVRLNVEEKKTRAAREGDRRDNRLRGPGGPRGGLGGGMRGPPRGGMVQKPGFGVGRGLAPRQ
Method: RNA Bind-n-Seq
Molecule type: RNA
Matrix: in vitro
Tested at: 1 µM
Notes: whole 134-nt RNA, ends assumed
Together with: 150 mM KCl
Reference: input library
Direction: higher = stronger binding
Endpoint: log2 enrichment
All sequences stand within: GGGAGUUCUACAGUCCGACGAUC … UGGAAUUCUCGGGUGUCAAGG
CCUCAAGUCCUGUGCUACACAUCGUAUGUACCGAAUCGGUGGUUUUUGGAGGAAAGUAUUAUGUUACGCCGUUCGGAUCUGCACUUCCAG: -0.481
GCAGGAAGUAAAAACAAAUGGAAAUGCUUCGGAUAGUGGCAGGGGUGGGGGUUGCUCAGGAAAGGGUGGGAUGGGAGUGGGUAAAGAGUU: 1.49
UGGGAGGUGGAUAUUGUUUAUUUUUUUAGCUCAUUUCCAGGGGUGGGAAUUUUUUUUUAAUAUGUGUCAUGAAUAAAGUUGUUUUUGAAA: 3.83
CACAGACAACACGCACCAACACAGACACAGAGGGAAGGGGUUGGGAUGGGGACAGGGUGCACAGCAGGGCGGGGUAGGACCCCAGCCCCU: 0.444
GCAGGAAGUAAAAACACAUGGAAAUGCUUCGGAUAGUGGCAGGGGUGGGGGUUGCUAAGGAAAGGGUGGGAUGGGAGUGGGUAAAGAGUU: 1.92
CACAGACAACACGCACCCACACAGACACAGAGGGAAGGGGUUGGGAUUGGGACAGGGUGCACAGCAGGGCGGGGUAGGACCCCAGCCCCU: -0.749
CCUGUGCUACACAUCGUAUGUACCGAAUCGGGGAAAAAAGGGAAAAAAGGGAAAAAAGGGGAAAGUAUUAUGUUACGCCGUUCGGAUCUG: -1.32
UGGGAGGUGGAUUUUGUUUAUUUUUUUAGCUCAUUUCCAGGGGUGGGAAUUUUUUUUUAUUAUGUGUCAUGAAUAAAGUUGUUUUUGAAA: 3.44

Block 3
Target: CCNF, cyclin fold, Cln2 fusion (human)
Method: yeast growth competition, sequencing
Matrix: yeast
Notes: strong parent motif
Reference: not given
Direction: higher = stronger binding
Endpoint: normalised enrichment score
Parent: DBF4B docking peptide (human); LGYLYLLLTQSLW
LGALYLLLTQSLW [Y3A]: 1.22
LGYLYLLLAQSLW [T9A]: 2.55
LGYLYLALTQSLW [L7A]: 2.38
LGYLYLLLTASLW [Q10A]: 2.99
LGYLALLLTQSLW [Y5A]: 2.14
AGYLYLLLTQSLW [L1A]: 2.36

Block 4
Target: Sal-like protein 4, full length isoform A (SALL4, Homo sapiens, UniProt Q9UJQ4, residues 1-1053)
Chain of UniProt Q9UJQ4 (whole entry, looked up): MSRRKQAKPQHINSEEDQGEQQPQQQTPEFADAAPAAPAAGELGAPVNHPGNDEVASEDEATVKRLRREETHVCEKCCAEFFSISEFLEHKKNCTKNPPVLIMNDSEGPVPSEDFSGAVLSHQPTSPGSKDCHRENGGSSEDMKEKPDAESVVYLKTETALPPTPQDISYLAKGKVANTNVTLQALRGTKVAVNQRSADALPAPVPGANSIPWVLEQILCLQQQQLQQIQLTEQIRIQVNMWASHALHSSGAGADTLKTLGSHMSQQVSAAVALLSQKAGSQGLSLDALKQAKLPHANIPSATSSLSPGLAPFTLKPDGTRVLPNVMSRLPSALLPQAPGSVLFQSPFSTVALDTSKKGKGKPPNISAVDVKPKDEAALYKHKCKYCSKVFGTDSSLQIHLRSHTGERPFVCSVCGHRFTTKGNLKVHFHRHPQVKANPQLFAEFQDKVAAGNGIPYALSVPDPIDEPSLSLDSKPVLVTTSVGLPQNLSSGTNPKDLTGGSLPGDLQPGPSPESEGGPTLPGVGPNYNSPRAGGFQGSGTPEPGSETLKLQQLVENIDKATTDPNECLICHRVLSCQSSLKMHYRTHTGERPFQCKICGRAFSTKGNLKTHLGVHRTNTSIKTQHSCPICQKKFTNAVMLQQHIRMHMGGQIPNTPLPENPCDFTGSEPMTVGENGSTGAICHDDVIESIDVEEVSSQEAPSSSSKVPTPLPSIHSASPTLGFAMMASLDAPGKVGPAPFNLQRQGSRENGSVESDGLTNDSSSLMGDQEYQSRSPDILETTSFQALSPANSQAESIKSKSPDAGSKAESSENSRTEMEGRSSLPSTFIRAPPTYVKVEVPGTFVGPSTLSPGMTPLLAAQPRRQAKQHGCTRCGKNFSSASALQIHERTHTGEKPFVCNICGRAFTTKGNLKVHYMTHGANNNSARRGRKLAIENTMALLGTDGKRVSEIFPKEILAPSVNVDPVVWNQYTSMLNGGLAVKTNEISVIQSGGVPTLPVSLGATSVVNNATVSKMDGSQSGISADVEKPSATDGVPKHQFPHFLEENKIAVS
Method: universal PBM
Molecule type: double-stranded DNA, one strand shown
Matrix: in vitro
Tested at: 600 nM
Notes: 8-mer, flanks averaged, mean of replicates
Direction: higher = stronger binding
Endpoint: E-score
CGCGGCGA: -0.293
AACTGATT: 0.136
TCGGTCAA: 0.0289
CGGCTTAC: -0.192
ACCGTTCG: -0.131
CCTGGGAA: -0.224
AATACTGG: 0.036
AGTGTGGG: 0.0133
CACCGAAA: -0.0295
CAAAAAGA: 0.212
AACTTCTT: 0.0833
CGGGCTAG: -0.273
CCTGTCCG: -0.25
AATGCTAT: 0.249
AACCCTGT: -0.144
CCGTACAA: 0.0639
GTCCGCCA: -0.221
GAAATAGC: 0.0851
CGAAAATC: 0.173
AGGTTACG: 0.0207
CATGGCCC: -0.238
CGACGGTC: -0.338
TGCATGCA: 0.185
TACTTCAA: 0.195
ACTATTCC: 0.11

Block 5
Target: RNA binding protein fox-1 homolog 2, RRM domain, GST-SBP tag (RBFOX2, Homo sapiens, UniProt O43251-10, residues 100-194)
Method: RNA Bind-n-Seq
Molecule type: RNA
Matrix: in vitro
Tested at: 365 nM
Notes: natural RNA segment, single round, ends assumed
Reference: no-protein control
Direction: higher = stronger binding
Endpoint: RBNS enrichment (R)
All sequences stand within: GGGAGUUCUACAGUCCGACGAUC … UGGAAUUCUCGGGUGCCAA
Construct (chain): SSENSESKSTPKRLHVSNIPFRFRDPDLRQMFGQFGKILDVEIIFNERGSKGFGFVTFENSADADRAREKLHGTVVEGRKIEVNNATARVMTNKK
UACGCCUUUCCAAUCUUUAUUGGAAGUCUCUCCCUGCCUACUUCCUAAUUUAUUCUUAUUUGACAGAGGGUAUGGAAGACUUGCAAUUUGAAAACUGGGGACCAGUUCCA: 0.277
UCUUGCACUUUAAAAACGCUGCGUCCUAUUCCAUUUGAAUGUAAAUUCUUAAAAGUUGAGACCAAUUGUAACCAGUUUAACUCAUUUUAGAUGACCUUUUUUUCUUAUAA: 0.354
AAGAGAAAUUCUUGAGGACCCUGGCAAGUUGGGCCCUGACCUUUCUGUUGCUGUCUCUUGCUGGUGAAGCAAUACCAGCAGUUCCUGUAAUACCACAAUAUCGUUCCAUG: 0.291
UGCCUACAUACACAUGGCCGGGAUUCUUUAUUUCCUUGUUAUCAAUUAUAGUGCUUUGUUUGUUUCAGGGUUGGAAUUCUCAACCAGAAAUAAUACUUUCUAAAAUAUUU: 0.399
CCUAAGUAAUAGGAGUCUCUCGGCUUCUUGCGUGUAGCCUCACAAGUUCUGAGAGAUGGGGAGCGGCCCCCAGCCCCCGCCCCAUCCUGUCAGGUUGGUGCGGAAGGGCU: 0.364
CCUGCCACAGCCACCUCCCUCCCUGGCCAUCCCAGAGCCGAGGCUCCCACUGUCCUCAGAGAGCCUGCAUGGAAAUGCUGUCCUCUUCCACUCUCCUCCUCUUUUUGAUA: 1.36
UGUCUUUUUCCACUGAAGUGUGACAUUUUGUUAGUACAUUUCAGUGUAGUCAUUCAUUUCUAGCUGUACAUAGGAUGAAGGAGAGAUCAGAUACAUGAACAUGUCUUACA: 0.437
UUUUUAUGUACAUCAUUAAUCUUCUGACAAGAAGCUGAAGUAGCACCACAGUCCAUAAUAUAUCAGGAUCUGGCAAGCUUAAGGAACCCAGCUCUUAGAAAUUUCUCUUC: 0.364
UUGUAAGGUGAAUUUCAAAGGGAGGGUUUUAGCUUAGGUAGUUAUUUUCUACCUAACUUUUCAAGUAGGAGCCUCUGCCUUUAGUCAGUAGUCUUUGAAGCAAGUAUCCU: 0.434
CGUCUUUGCCCACGUCCCGACAACUUGUUCCCUGACCCCCUCAGGGAUGGCCCCAAACUGUCCCUGCCUCUGGCACCCCCUUUCAUUGGUUCCAUCCAUCCCCACAACAG: 0.413
CUGAGGAUUUCUUUUUGGUUUGCCUUUUAUGUAAAUUUUUUACGUAGCUAUUUUUAUACACUGUAAGCUUUGUUCUGGGAGUUGCUGUUAAUCUGAUGUAUAAUGUAAUG: 1.29
UAGCGUACACAAGAUUCCAUGACUCCAGAGCAUCUUGAAGAAACAUACAUAUUUUGAAAGAGGGGAAAUGUAGCAGAUAGUUCACAAGCUGCGGGUUGUAGCUAAAUAUU: 0.976

Block 6
Target: Histone acetyltransferase KAT6A, winged helix 1, GST fusion (KAT6A, Homo sapiens, UniProt Q92794, residues 1-85)
Method: protein binding microarray
Molecule type: double-stranded DNA, one strand shown
Matrix: in vitro
Tested at: not given
Notes: 8-mer, flanks averaged, mean of 2 arrays, mostly near background
Reference: not given
Direction: higher = stronger binding
Endpoint: E-score
Target sequence (chain): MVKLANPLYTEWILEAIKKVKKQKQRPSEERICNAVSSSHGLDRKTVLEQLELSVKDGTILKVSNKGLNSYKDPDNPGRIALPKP
TATATAAA: -0.076
AGGCCGCC: 0.336
CAAAACGA: -0.0988
ACCGGGAG: 0.229
GGTAGGGA: -0.0719
AGGGTCCA: -0.163
AGTTGAAA: -0.118
ACCTGGCC: -0.106
GAGCTTAC: -0.0511
AATTGCAG: -0.107
TCTAATCA: -0.131
CAAATCGC: 0.00302
AGACAAAT: -0.21
AAGTATCC: -0.0461
GGTGCGTA: 0.108
CTAGGAGC: -0.0414
CTAAGGGC: -0.0915
CCCCGCAC: 0.228
TGGCCACA: -0.251
GAGTTTAC: -0.108
GCTTTCAC: -0.0847
CTTGACAC: -0.104
GAGTAGCC: -0.0573
GAGCCCAA: -0.212
CAGGTGGC: -0.219
